# Published values pooled from the literature.
# Protocols differ between the studies behind these lines. ± gives the spread as reported.
SMILES,test,system,conditions,how to read,remaining compound [%]
COc1ccc(CSc2ncccn2)cc1OS(=O)(=O)c1ccc([N+](=O)[O-])cc1,,mouse plasma,1 h,,100
CC(C)(C)[C@H](NC(=O)C(F)F)C(=O)N1C[C@H]2[C@@H]([C@H]1C(=O)N[C@H](C#N)C[C@@H]1CCCNC1=O)C2(C)C,,human liver microsomes,"60 min, together with: NADPH",,40.4
O=CC1C(=O)Nc2ccccc21 (centres unmarked),HPLC-MS,HEPES buffer,"1 h, pH 7.4",,97
CC(C)(C)[C@H](NC(=O)c1ccc(Oc2ccc(C(=O)N[C@H]3CCCC[C@@H]3O)cc2)cc1)C(=O)NCCN1CCCC1,,mouse liver microsomes,"1 µM, 60 min, pH 7.4, together with: without cofactors",,70
CCCCN1C(=O)c2cccc3c(N4CC[N+](C)(C5OC(C(=O)O)C(O)C(O)C5O)CC4)ccc(c23)C1=O (centres unmarked),,human liver microsomes,"51.74 nM, 24 h, 4 °C",,98.3
O=S(=O)(Cl)c1cc(C(F)(F)F)cc(C(F)(F)F)c1,HPLC-MS,HEPES buffer,"1 h, pH 7.4",,8
O=C(NC1CCC(F)(F)CC1)C(c1cncnc1)N(C(=O)C(F)Cl)c1ccc(-c2cncs2)cc1 (centres unmarked),,mouse liver microsomes,"concentration not given, 0.1667 h, pH 7.4",,80
O=Cc1cc(OCc2ccccc2)ccc1B(O)O,HPLC-MS,HEPES buffer,"1 h, pH 7.4",,97
C[C@](C(=O)NC1CCC(F)(F)CC1)(c1cncnc1)N(C(=O)[C@H](F)Cl)c1ccc(OC(F)(F)F)cc1,,human liver microsomes,"concentration not given, 0.5 h, pH 7.4",,11.6
C/C(=N\OCCCN1CCOCC1)c1ccc(C(F)(F)F)cc1,,mouse liver microsomes,30 min,,21.5
CC[C@H](C)[C@H](NC(=O)[C@@H](NC(=O)[C@H](CCC(=O)O)NC(=O)[C@H](C)NC(=O)[C@H](C)NC(=O)[C@H](CCC(=O)O)NC(=O)[C@H](Cc1ccc2ccccc2c1)NC(=O)[C@H](Cc1ccc(OCc2ccccc2[N+](=O)[O-])cc1)NC(=O)[C@@H](NC(=O)[C@@H](NC(=O)[C@H](CCCNC(=N)N)NC(=O)[C@H](C)NC(=O)[C@H](CC(N)=O)NC(=O)[C@H](CCCCN)NC(=O)[C@H](CCCNC(=N)N)NC(=O)[C@H](CCCCN)NC(=O)[C@H](CCCNC(=N)N)NC(=O)[C@H](CCCCN)NC(=O)[C@@H]1CCCN1C(=O)[C@H](CCCNC(=N)N)NC(=O)[C@H](CCCCN)NC(=O)[C@H](CCCNC(=N)N)NC(=O)[C@H](CCCNC(=N)N)NC(C)=O)C(C)C)[C@@H](C)O)[C@@H](C)CC)C(N)=O,HPLC,ambient light,24 h,,99
Cc1ccc(OCC(=O)N(Cc2cccs2)c2ccn[nH]2)cc1,,Sprague-Dawley rat liver microsomes,"10 µM, 60 min, without NADPH",,67.3
C=C(NC(=O)c1csc(-c2nc3c(cc2O)-c2nc(cs2)C(=O)NC(C(C)O)C(=O)NC(=C(C)OC)c2nc(cs2)C(=O)NC2c4nc(cs4)C(=O)NC(COC(=O)c4c5c6c(cccc6n4O)COC(=O)C(OC4CC(C)(O)C(N(C)C)C(C)O4)C2OC5)c2nc-3cs2)n1)C(N)=O (centres unmarked),,monkey liver microsomes,"2 µM, 60 min, together with: NADPH",,77.9
C=CC(=O)NCc1ccc(-n2nc3c(=O)[nH]nc(N)c3c2-c2oc3ccc(C)cc3c2C)cc1,,BALB/c nude mouse whole blood,"1 µM, 0.5 h, 37 °C",,95.6
Cc1cc(C)nc(NC(=S)N2CCN(c3ccc(C(F)(F)F)cn3)CC2)c1,,aqueous buffer with 5 mM glutathione,48 h,,76
O=C=Nc1cc(C(F)(F)F)cc(C(F)(F)F)c1,HPLC-MS,HEPES buffer,"1 h, pH 7.4",,73
O=C(N1CCCCC1)C12CC(c3ccccc3)(C1)C2(Br)Br,,pooled human liver microsomes,"2 µM, 40 min, without NADPH",,85
COc1cc(-c2cncc(-c3ccc(C4CCN(C)CC4)cc3)c2C)cc(OC)c1OC,,human liver microsomes,"1 µM, 1 h, pH 7.4",,71
CN(Cc1cc(C2CC2)on1)C(=O)c1cccc(-c2ccc(F)cc2)c1,,human liver microsomes,"2 µM, 15 min, pH 7.5, together with: 1-aminobenzotriazole",,91.7
[2H]C1([2H])CC[C@@H](C[C@@H](C#N)NC(=O)[C@@H]2[C@@H]3[C@H](CN2C(=O)[C@@H](NC(=O)C(F)(F)F)C(C)(C)C)C3(C)C)C(=O)N1,,human liver microsomes,60 min,,102
Nc1nc(-c2ccccc2)nc2[nH]nc(Nc3ccccc3)c12,,human liver microsomes,"time not given, metabolic stability",,17
CCN(CC)c1ccc2cc(C(=O)ON3C(=O)CCC3=O)c(=O)oc2c1,,HEPES buffer,"20 h, pH 7.4",,0
C=CC(=O)Nc1ccc(-n2nc3c(=O)[nH]nc(N)c3c2-c2oc3ccc(Br)cc3c2C)cc1,,BALB/c nude mouse whole blood,"1 µM, 2 h, 37 °C",,61.4
O=C1CC[C@H](N2Cc3cc(-c4ccn5ncc(Cl)c5n4)ccc3C2=O)C(=O)N1,,human liver microsomes,"1 µM, 15 min",,97.3
Cc1ccc(C(C)C)cc1.O=C(N=P(c1ccccc1)(c1ccccc1)c1ccccc1)c1[c-]cccc1.[Cl-].[Ru+2],,DMSO-d6,6 days,,> 99
O=C(NC1CCC(F)(F)CC1)C(c1cncnc1)N(C(=O)C(F)Cl)c1ccc(OC(F)(F)F)cc1 (centres unmarked),,mouse liver microsomes,"concentration not given, 0.5 h, pH 7.4",,95.3
COc1cc2cn[nH]c2nn1,LC-MS/MS,"mouse liver S9 fraction, 0.25 mg/mL","3 µM, 30 min, together with: NADPH 1 mM",,80.8
O=C(O)C(Cc1c[nH]c2ccccc12)Nc1ccccc1 (centres unmarked),,human liver microsomes,"1.5 µM, 180 min, pH 7.4, mean of replicates",reference: 0 min,66.6
Cc1ccc2oc(-c3c4c(N)n[nH]c(=O)c4nn3-c3ccc(NC(=O)/C=C/CN(C)C)cc3)c(C)c2c1,,BALB/c nude mouse whole blood,"1 µM, 5 h, 37 °C",,17.5
Cc1cc(C)nc(NC(=S)N2CCN(Cc3ccc(C(F)(F)F)cc3)CC2)c1,,human liver microsomes,15 min,,98.4 ± 7.3
C=CC(=O)Nc1ccc(-n2nc3c(=O)[nH]nc(N)c3c2-c2oc3cc(F)ccc3c2C)cc1,,BALB/c nude mouse whole blood,"1 µM, 0.5 h, 37 °C",,85.2
CO[C@@H](C[C@H]1C(C)=CC[C@@H]2[C@]3(C)C[C@H](O[C@@H]4O[C@@H](C)[C@H](O)[C@@H](O)[C@H]4O)[C@@H](O)C(C)(C)[C@H]3CC[C@]21C)[C@H](N)C(=O)O,,simulated gastric fluid with pepsin,"1 µM, 0 min, pH 1.2",,100

# For quick reference, copied from above:
SMILES,test,system,conditions,how to read,remaining compound [%]
O=C(O)C(Cc1c[nH]c2ccccc12)Nc1ccccc1 (centres unmarked),,human liver microsomes,"1.5 µM, 180 min, pH 7.4, mean of replicates",reference: 0 min,66.6
Cc1ccc(C(C)C)cc1.O=C(N=P(c1ccccc1)(c1ccccc1)c1ccccc1)c1[c-]cccc1.[Cl-].[Ru+2],,DMSO-d6,6 days,,> 99
C=C(NC(=O)c1csc(-c2nc3c(cc2O)-c2nc(cs2)C(=O)NC(C(C)O)C(=O)NC(=C(C)OC)c2nc(cs2)C(=O)NC2c4nc(cs4)C(=O)NC(COC(=O)c4c5c6c(cccc6n4O)COC(=O)C(OC4CC(C)(O)C(N(C)C)C(C)O4)C2OC5)c2nc-3cs2)n1)C(N)=O (centres unmarked),,monkey liver microsomes,"2 µM, 60 min, together with: NADPH",,77.9
CN(Cc1cc(C2CC2)on1)C(=O)c1cccc(-c2ccc(F)cc2)c1,,human liver microsomes,"2 µM, 15 min, pH 7.5, together with: 1-aminobenzotriazole",,91.7
